Measured values from different studies.
Compare with care: the assays were run in different laboratories. Several values in a cell are separate wells, animals, samples, runs or records. ± marks the error that the study gave.
Sequence of UniProt Q16566 (whole entry, looked up): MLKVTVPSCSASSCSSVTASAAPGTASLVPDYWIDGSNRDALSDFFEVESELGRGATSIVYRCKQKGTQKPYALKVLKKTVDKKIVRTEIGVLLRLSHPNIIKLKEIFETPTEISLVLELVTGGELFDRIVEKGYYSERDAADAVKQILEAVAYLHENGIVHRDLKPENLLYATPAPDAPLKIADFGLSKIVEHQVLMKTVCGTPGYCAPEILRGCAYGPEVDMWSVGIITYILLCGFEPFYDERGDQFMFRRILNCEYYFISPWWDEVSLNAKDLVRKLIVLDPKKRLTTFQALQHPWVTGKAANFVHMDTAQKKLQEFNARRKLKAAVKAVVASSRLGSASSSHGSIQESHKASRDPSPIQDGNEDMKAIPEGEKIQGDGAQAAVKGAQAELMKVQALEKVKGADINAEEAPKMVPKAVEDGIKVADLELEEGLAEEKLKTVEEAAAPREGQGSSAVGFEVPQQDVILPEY

| Compound | tested on | test | test system | setting | scale | quantity | result |
| --- | --- | --- | --- | --- | --- | --- | --- |
| CNS(=O)(=O)Nc1nccc(Cc2c(C)c3ccc(Oc4ncccc4F)cc3oc2=O)c1F | SW1088 | cell viability | – | 7 days | – | IC50 | 47.5 nM |
| CC(=O)OC[C@H]1O[C@@H]([Se]C(C)=O)[C@H](OC(C)=O)[C@@H](OC(C)=O)[C@@H]1OC(C)=O | THP-1 macrophages (PMA-differentiated) | WST-1 | – | 25 µM, 24 h | – | viability | 105 ± 4.2% |
| Cc1ncsc1-c1ccc(C(C)NC(=O)C2CC(O)CN2C(=O)C(NC(=O)CCCCCCCCCCN2CCCC(Nc3ncc(Cl)c(Nc4ccccc4S(=O)(=O)C(C)C)n3)C2)C(C)(C)C)cc1 (stereo not drawn) | 22Rv1 | RNA-seq, item: ZMYM3 mRNA | – | concentration not given | baseline: DMSO | log2 fold change | -1 |
| C=C(C)[C@H]1Cc2c(cc(O)c3c2O[C@@H]2COc4cc(OC)c(OC)cc4[C@@H]2C3=O)O1 | A549 | cell growth or viability, MTT | – | 100 µg/mL | – | viability | 55.1% |
| COC1OC(C)C(OC2OC(C)C(O)C(OC3OC(C)C(OC4OC(C)C(O)C(OC5OC(C)C(OC6OC(C)C(O)C(OC7OC(C)C(OC8OC(C)C(O)C(OS(=O)(=O)O)C8OS(=O)(=O)O)C(OS(=O)(=O)O)C7OS(=O)(=O)O)C6OS(=O)(=O)O)C(OS(=O)(=O)O)C5OS(=O)(=O)O)C4OS(=O)(=O)O)C(OS(=O)(=O)O)C3OS(=O)(=O)O)C2OS(=O)(=O)O)C(OS(=O)(=O)O)C1OS(=O)(=O)O (stereo not drawn) | NIH 3T3 | CCK-8 | – | concentration not given, 24 h, low concentration | baseline: untreated cells | viability | 95.7% and 98% and 98.4% |
| CCC1C=CC2CCN(C(=O)C3CCC4C=CC5(CCCN5C(=O)C(Cc5ccccc5Cl)NC(C)=O)C(=O)N43)C2C(=O)N1CC(=O)OC (stereo not drawn) | MDA-MB-231 | – | – | 180 µM, 24 h | – | viability | not toxic |
| Cc1nn(-c2cccc(N)c2)c(=O)c2cnc(Nc3ccc(N4CCNCC4)cc3)nc12 | CAMK4 (Homo sapiens, UniProt Q16566) | SelectScreen kinase | – | – | – | IC50 | > 10000 nM |
| COC1CN([C@H]2CC[C@H]([C@@]3(C)Oc4c(Cl)cc(C(=O)NCc5c(SC)cc(C)[nH]c5=O)c(C)c4O3)CC2)C1 | – | RNA-seq, item: PLEK2 mouse homolog | mouse, HT-1376 xenograft, whole blood | dose not given | baseline: vehicle | log2 fold change | 1.73 |
| CC(=O)OC[C@H]1O[C@@H]([Se]C(=O)c2ccc([N+](=O)[O-])cc2)[C@H](OC(C)=O)[C@@H](OC(C)=O)[C@@H]1OC(C)=O | THP-1 macrophages (PMA-differentiated) | WST-1 | – | 25 µM, 24 h | – | viability | 32 ± 6.2% |
| COc1ccc(Cn2cc(CO[C@@H]3O[C@H]4[C@H](OC[C@H]4O)[C@H]3N=[N+]=[N-])nn2)cc1 | HPAF-II | cytotoxicity, CellTiter-Glo | – | up to 30 µM, 72 h | – | viability | not toxic |
| CC[C@H](C)[C@@H](C(=O)N[C@@H](Cc1ccc(O)cc1)C(=O)N1CCC[C@H]1C(=O)N[C@@H](Cc1ccccc1)C(=O)O)n1cc(C(Cc2ccc(O)cc2)NC(=O)[C@@H](NC(=O)[C@H](CCCNC(=N)N)NC(=O)[C@@H](N)CC(=O)O)C(C)C)nn1 (stereo partly drawn) | Caco-2 | cell growth or viability, MTT | – | 200 µM, 48 h | – | viability | 55.3% |
| COC1OC(C)C(OS(=O)(=O)O)C(OC2OC(C)C(OS(=O)(=O)O)C(OC3OC(C)C(OS(=O)(=O)O)C(OC4OC(C)C(OS(=O)(=O)O)C(OC5OC(C)C(OS(=O)(=O)O)C(OC6OC(C)C(OS(=O)(=O)O)C(OC7OC(C)C(OS(=O)(=O)O)C(OC8OC(C)C(OS(=O)(=O)O)C(OC9OC(C)C(OS(=O)(=O)O)C(OC%10OC(C)C(OS(=O)(=O)O)C(OS(=O)(=O)O)C%10OS(=O)(=O)O)C9OS(=O)(=O)O)C8OS(=O)(=O)O)C7OS(=O)(=O)O)C6OS(=O)(=O)O)C5OS(=O)(=O)O)C4OS(=O)(=O)O)C3OS(=O)(=O)O)C2OS(=O)(=O)O)C1OS(=O)(=O)O (stereo not drawn) | RAW264.7 | CCK-8 | – | concentration not given, 24 h, low concentration | baseline: untreated cells | viability | 117% and 135% and 132% |
| Nc1ncc(-c2cc(-c3cnn(CC(F)(F)F)c3)ncc2F)nc1C(=O)NC1CNCC(F)C1 (stereo not drawn) | STK35 | KINOMEscan | – | 1 µM | baseline: DMSO control | remaining binding | 37% |
| CN1CCCNC(=O)c2cccc(c2)C(=O)NCCCN(C)CCCNc2cccc3c2C(=O)c2cccc(c2C3=O)NCCC1 | NHEK | CCK-8 | – | 15 µM, 48 h | baseline: untreated | viability | 17.5% |
| COC1OC(C)C(OS(=O)(=O)O)C(OC2OC(C)C(OS(=O)(=O)O)C(OC3OC(C)C(OS(=O)(=O)O)C(OC4OC(C)C(OS(=O)(=O)O)C(OC5OC(C)C(OS(=O)(=O)O)C(OC6OC(C)C(OS(=O)(=O)O)C(OC7OC(C)C(OS(=O)(=O)O)C(OC8OC(C)C(OS(=O)(=O)O)C(OS(=O)(=O)O)C8OS(=O)(=O)O)C7OS(=O)(=O)O)C6OS(=O)(=O)O)C5OS(=O)(=O)O)C4OS(=O)(=O)O)C3OS(=O)(=O)O)C2OS(=O)(=O)O)C1OS(=O)(=O)O (stereo not drawn) | NIH 3T3 | CCK-8 | – | concentration not given, 24 h, high concentration | baseline: untreated cells | viability | 87.6% and 107% and 100% |

For quick reference, copied from above:
| Compound | tested on | test | test system | setting | scale | quantity | result |
| --- | --- | --- | --- | --- | --- | --- | --- |
| CC(=O)OC[C@H]1O[C@@H]([Se]C(=O)c2ccc([N+](=O)[O-])cc2)[C@H](OC(C)=O)[C@@H](OC(C)=O)[C@@H]1OC(C)=O | THP-1 macrophages (PMA-differentiated) | WST-1 | – | 25 µM, 24 h | – | viability | 32 ± 6.2% |
